Experimental data collected from several papers.
Numbered parts are unrelated; each lists some results of a single study. Positions count from the first letter of the parent shown.

Series 1
Target: CCNE1, cyclin fold, Cln2 fusion (human)
Technique: yeast growth competition, sequencing
Sample: yeast
Setting: strong parent motif
Baseline: not given
Direction: higher = stronger binding
Quantity: normalised enrichment score
Starting sequence: E2F1 docking peptide (human); PPVKRRLDLETDH
Change = FPVKRRLDLETDH [P1F]; value = 2.19
Change = PPVKRRLDLETDP [H13P]; value = 2.32
Change = PPVKRGLDLETDH [R6G]; value = 0.441
Change = PPVKRRLDLDTDH [E10D]; value = 3.67
Change = PPVKRRLDLETGH [D12G]; value = 1.51
Change = PPGKRRLDLETDH [V3G]; value = -0.174
Change = PPVKRRLDLETQH [D12Q]; value = 1.95
Change = PPVKRQLDLETDH [R6Q]; value = 2.02
Change = PPVIRRLDLETDH [K4I]; value = 0.951
Change = PPVKRRLDLETKH [D12K]; value = 1.61
Change = PPVKKRLDLETDH [R5K]; value = -0.0548
Change = TPVKRRLDLETDH [P1T]; value = 0.786
Change = PPVKRRHDLETDH [L7H]; value = 0.49
Change = PPVKRRLDLETVH [D12V]; value = 1.57
Change = PPVQRRLDLETDH [K4Q]; value = 0.46
Change = PPVKERLDLETDH [R5E]; value = 0.892
Change = PPVKRRLFLETDH [D8F]; value = 7.44
Change = PPVKRRLDLETDQ [H13Q]; value = 2.3

Series 2
Target: Cyclic AMP-dependent transcription factor ATF-1 (ATF1, Homo sapiens, UniProt P18846, residues 1-271, full length assumed)
Technique: protein-binding microarray
Form: double-stranded DNA, one strand shown
Sample: in vitro
Concentration: not given
Setting: k-mer, scored over probes, only values ≥0.25
Direction: higher = stronger binding
Quantity: E-score
Target sequence (chain): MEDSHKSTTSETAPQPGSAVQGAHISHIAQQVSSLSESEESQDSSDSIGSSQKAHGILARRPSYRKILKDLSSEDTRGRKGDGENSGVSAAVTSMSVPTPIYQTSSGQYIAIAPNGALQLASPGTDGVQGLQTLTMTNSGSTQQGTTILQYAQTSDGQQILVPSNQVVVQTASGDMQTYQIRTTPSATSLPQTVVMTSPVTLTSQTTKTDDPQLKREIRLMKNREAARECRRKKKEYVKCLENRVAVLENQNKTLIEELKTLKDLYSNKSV
Sequence = GGATGAC; value = 0.337
Sequence = CGTCGTC; value = 0.276
Sequence = GTACGTA; value = 0.389
Sequence = AAGACGT; value = 0.277
Sequence = CACGTAG; value = 0.379
Sequence = CGTGTGA; value = 0.303
Sequence = ATACGTA; value = 0.416
Sequence = CATCACG; value = 0.332
Sequence = CAACACG; value = 0.278
Sequence = ACGTGAA; value = 0.266
Sequence = CGTCACA; value = 0.485
Sequence = TATTACA; value = 0.253
Sequence = CGCATCA; value = 0.316
Sequence = GTGATGA; value = 0.269
Sequence = ACGAAAC; value = 0.329
Sequence = ACACGTA; value = 0.407
Sequence = CGGTGAC; value = 0.297
Sequence = TGTCACA; value = 0.277
Sequence = CCATTAC; value = 0.261
Sequence = CGTCGTA; value = 0.317
Sequence = ACGTAGG; value = 0.413
Sequence = CTACGTC; value = 0.441
Sequence = ACACGTC; value = 0.364
Sequence = TATGACA; value = 0.274
Sequence = AGGGGCG; value = 0.264

Series 3
Target: RING finger protein unkempt homolog, zinc fingers 1-6, GST-SBP tag (UNK, Homo sapiens, UniProt Q9C0B0, residues 30-357)
Sequence of UniProt Q9C0B0 (30-357, looked up): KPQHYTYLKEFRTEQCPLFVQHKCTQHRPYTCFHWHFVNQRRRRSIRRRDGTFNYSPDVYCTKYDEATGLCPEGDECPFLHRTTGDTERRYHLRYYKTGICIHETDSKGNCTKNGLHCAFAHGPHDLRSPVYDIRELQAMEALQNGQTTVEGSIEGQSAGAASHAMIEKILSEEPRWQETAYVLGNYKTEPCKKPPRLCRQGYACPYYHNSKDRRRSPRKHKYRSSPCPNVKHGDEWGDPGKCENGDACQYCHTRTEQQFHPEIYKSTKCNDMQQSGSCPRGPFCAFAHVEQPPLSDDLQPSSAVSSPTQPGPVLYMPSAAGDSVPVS
Technique: RNA Bind-n-Seq
Form: RNA
Sample: in vitro
Concentration: not given
Setting: RNA with constant flanks, human and mouse sites, ends assumed
Baseline: input RNA pool
Direction: higher = stronger binding
Quantity: bound/input enrichment
Constant ends, left off below: GGGAGUUCUACAGUCCGACGAUC … CAACAGAGGAUUGAGCAUCA
Sequence = UAUUUUUUAGAACAGCUAUUUGAUUUCUUCUCAAAGUCACUGCUGCCUUCUGAGUUGUAGUUAGCGCCUUCUCCAGCUUCCUGCAGCAUGACAGAAGAGAGAUACAGCAGUUGUUUCAAA; value = 0.371 ratio
Sequence = CUGAGAAUCUAUCUUGAUGAAAGGAGAGAUGUCUUGGAUGACCUUGUAACCUUGCAUAAUUUUAGAAAUCAGUUCUUGCCGAAUGCACUGAGAGAAUUUUUUCGUCAUAUUCAUGCCCCU; value = 0.128 ratio
Sequence = CGUGCAGUAGAAUGUUGUGUGAGGUUGCUUCAUGUGCGAAAUGGAAACUGCAAAUAUCAUUUGGGUGAAGAAACAUUUAAAUUAGCUCAGACAUAUAUGGAUAAACUAUCAAAACAUGGC; value = 0.753 ratio
Sequence = AUUGCAAAAAAUGUAUCUACCUCCAAACCUGAGUUUGAAUUUACCACACUGGACUUUCCUGAACUGCAAGGUGCAGAGAACAAUAUGUCAGAGAUACAGAAGCAACCCAAGUGGGGACCU; value = 0.207 ratio
Sequence = ACAAAACAAGCAGCAUUUAAAGCUGUUUCUGAAGUUUGUCGCAUUCCUACCCAUCUCUUUACUUUUAUCCAGUUUAAGAAAGAUCUGAAGGAAAGCAUGAAAUGUGGCAUGUGGGGUCGU; value = 0.214 ratio
Sequence = CCAACGCUCUGCUCCCUGGCAACCCCGAACACUUGGGAUGUCUCGCUGCUGUUUGCCUUCAUUAGUUUGCUCAUCAUGUUUCCCACGUGCUGGAUUGUGUCCUCCUGGCUGGUGUGGGGA; value = 1.03 ratio
Sequence = AUUGCCCCGGCAUCUGUCUUUGCUGGGGACUUAAGCUACGCCAUUGCUGGGUUGGUAUUUUUAGAAUACAAAGCCAGUGCACAGUGGUCUGCAGAGCUCUUGGUCAUCAAUUACCGGGGA; value = 0.142 ratio
Sequence = UUUAUGACAUGUCCCUUUAUAUUGAAUGCUGUCACAAAGAAUCUGGGAUUAUAUUAUGACAAUAGAAUUCGCAUGUACAGUGAAAGAAGAAUCACUGUUCUUUACAGCCUAGUUCAAGGA; value = 0.439 ratio
Sequence = AGUGCGCGUGGACGCCGGCCGCGGCGGCGGCACUAUGGGCACGGGGUAGAGGCGAGCUGCCGCCGCCACCGGGGUGGUGGGAGAGCCUCUUCGGGGGAGGGGGCGGGAGGGGAGGGAGGG; value = 1.32 ratio
Sequence = UUGGGACAUGGGGCUGUUUUCUUCUCAGUUUGACAACCUGGAGCCCUCUCUCUCUUGGUCAUCCUUUUAGAAGCCAAGAGAAAGGUGGGUUGGGAAGCCUCUCACUUCCCUUAGGCUCAG; value = 0.202 ratio
Sequence = GGGCUGCAGACAUGUAGGAUGGAGUGAGGUGUGUUUCCUGUCACCCUCCACUCCCCAGCUUUAGUUUCAUAAAUGUAGUUUUAGAUCCCUCACUGCUUGGUUCCCAAAGCCUUAUUACUG; value = 21.8 ratio

Series 4
Target: NFIL3, bZIP domain (human)
Technique: DHFR protein complementation
Sample: yeast
Setting: single substitutions, most at no-binding floor
Baseline: wild-type JUN-FOS pair
Direction: higher = stronger binding
Quantity: binding fitness
Starting sequence: JUN, bZIP domain (human); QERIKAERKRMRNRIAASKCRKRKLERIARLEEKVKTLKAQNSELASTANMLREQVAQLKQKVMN; partner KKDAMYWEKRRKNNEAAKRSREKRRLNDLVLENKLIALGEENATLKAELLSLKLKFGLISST
Change = T37W; value = -1.32 natural log
Change = E44M; value = -1.56 natural log
Change = A57H; value = -1.46 natural log
Change = K39D; value = -1.28 natural log
Change = Q41A; value = -1.53 natural log
Change = V35E; value = -1.5 natural log
Change = A57P; value = -1.48 natural log
Change = A46P; value = -1.47 natural log
Change = R30P; value = -1.36 natural log
Change = E54T; value = -1.46 natural log
Change = N42D; value = -1.49 natural log
Change = K34Q; value = -1.4 natural log
Change = T48A; value = -1.36 natural log
Change = A46W; value = -1.33 natural log
Change = E33G; value = -1.45 natural log
Change = T37P; value = -1.51 natural log
Change = E44Q; value = -1.57 natural log
Change = V56W; value = -1.48 natural log
Change = Q55F; value = -1.44 natural log
Change = T37F; value = -1.6 natural log
Change = E54L; value = -1.5 natural log
Change = E44A; value = -1.5 natural log
Change = V35P; value = -1.41 natural log
Change = K39R; value = -1.24 natural log

Series 5
Target: RNA binding protein fox-1 homolog 2, RRM domain, GST-SBP tag (RBFOX2, Homo sapiens, UniProt O43251-10, residues 100-194)
Technique: RNA Bind-n-Seq
Form: RNA
Sample: in vitro
Concentration: 365 nM
Setting: natural RNA segment, single round, ends assumed
Baseline: no-protein control
Direction: higher = stronger binding
Quantity: RBNS enrichment (R)
Constant ends, left off below: GGGAGUUCUACAGUCCGACGAUC … UGGAAUUCUCGGGUGCCAA
Target sequence (chain): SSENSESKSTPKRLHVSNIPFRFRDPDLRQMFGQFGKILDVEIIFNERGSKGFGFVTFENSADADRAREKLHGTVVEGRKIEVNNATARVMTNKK
Sequence = UAAAAAAAAAAUGCAAGCUGUCAGGAUGCUUAAGCUCUUUUCAGACAUCUGCAGUUUCAUCCCUACCUUGUUCACAUACCAUCCAAGAGGCACAUAGGCUACCCAAGAGA; value = 1.13
Sequence = CUCUGUGGUCCUCCCCUCCUGACCCAGGCCUCUGUGGCAUGCUGCAAGGAUCAGAGCCAGACACCAGGAGUCACAGGCCCCACCCAGGAAGGGCAUUCAGGGCCCCUGGG; value = 18.2
Sequence = UUGCAGCAACCUUUCUCUCCUGUCUACCCUUUUAGUUUACUGUAUGCCAUGGUUUUGUUUUGGUUACAUUGAAAGAAAGUUAAUUUGGAAAAUUUGGGAGAAAUCUAAUC; value = 0.659
Sequence = GCCUAGGAAGUACAGAGCAUCCUGCCUGUGCCUUGGAGCCUGUGCACUGCUUUUGUAUGUGAUCUUGCAACAAACUCAGAAAUGGCUCCUUCCCAGCCCUACUGAAAAGC; value = 0.317
Sequence = AUGAGUCACUUCCUGAACCCAUUGACCAAAGGUGGACAGAGACAAUCCUGUAGACCUUGACAUUCAGAAAGAUGUGAGCUGCUUACUGAUCAUAUAUGCAUACGUUUCUU; value = 0.603
Sequence = CUCCGUCUUGGCCAUGUCUAGUAAUUGCUAUGUGUUGGGAGAAACUUUGUGAAUGCACCAUUUUGAUGAUCAUGAAACGCUGAUGAAAAAUGCCUCCAAACAUUUUUCUG; value = 0.59
Sequence = CCCUGUCUGCGGAAGGUAGGAUUAGAUCAUUAGCUCAGUGACCUCCUAGGGUUUCGAUGUGCUGUGUUCUCAUCCUACAGCUGGUUUGGUAAUGAUCUGCAAGUCCCGGA; value = 0.621
Sequence = AGGGGCUUCCGGCUCCCUUCUACAGCCUCAGAAACCAGACUCGUUCUUCUGGGAACCCUGCCCACUCCCAGGACCAAGAUUGGCCUGAGGCUGCACUAAAAUUCACUUAG; value = 0.339
Sequence = UUUAUGUAUUUUUUGUGAAUGAAACUGUUGCUGUAGGAAAGUCAAGGUUCAUGUAAGAGUAUCGUGGUGUAAAUAUAAUGGUUUCACAGCUGUUUGAAUUUUUCUUUUCC; value = 1.4
Sequence = UUUGCAUCCUUUAUUUUUAAUAUUCAUAAUGUCGUGUGCUUAAAAGUGGGCUUUGAAGUGUGUGCUGCUUACUCCUUUCAUCUUUCUCCCCGCUUCCCCAGUCUUUAAAC; value = 0.502
Sequence = UAGGGCUGUUAAUCAAUUGUUUUUGUUUUUGUUGUUUUCUUUGCCUGAGUCCUGACAAUUGUAUCCCGGUUCCCCAGGGGACAGUCUGGGUCCCUCUCUGGUCUGACGCU; value = 6.51
Sequence = CUUCUGCCCAACACUGGGUGCCCCUUCCCAGUUUCCCAGCAGGGGCUUCAUGGGCCACCGUCAGUGGGUCUGGGCCUGCCAGAGUCGUCUUGCUCUUCCUCUUGCUUCUA; value = 0.343

Excerpt of the above (series 4):
Change = Q55F; value = -1.44 natural log
Change = E44A; value = -1.5 natural log
Change = E44Q; value = -1.57 natural log
Change = A46W; value = -1.33 natural log
Change = T37F; value = -1.6 natural log
Change = A57H; value = -1.46 natural log
Change = T37W; value = -1.32 natural log
Change = V35P; value = -1.41 natural log
